Results gathered from unrelated publications.
A part holds a random share of what one study measured.

Sample 1
Target: Sal-like protein 4, full length isoform B (SALL4, Homo sapiens, UniProt Q9UJQ4-2, residues 1-616)
Method: universal PBM
Form: double-stranded DNA, one strand shown
Sample: in vitro
Concentration: not given
Notes: 8-mer, flanks averaged, mean of replicates
Reading: higher = stronger binding
Residues (chain): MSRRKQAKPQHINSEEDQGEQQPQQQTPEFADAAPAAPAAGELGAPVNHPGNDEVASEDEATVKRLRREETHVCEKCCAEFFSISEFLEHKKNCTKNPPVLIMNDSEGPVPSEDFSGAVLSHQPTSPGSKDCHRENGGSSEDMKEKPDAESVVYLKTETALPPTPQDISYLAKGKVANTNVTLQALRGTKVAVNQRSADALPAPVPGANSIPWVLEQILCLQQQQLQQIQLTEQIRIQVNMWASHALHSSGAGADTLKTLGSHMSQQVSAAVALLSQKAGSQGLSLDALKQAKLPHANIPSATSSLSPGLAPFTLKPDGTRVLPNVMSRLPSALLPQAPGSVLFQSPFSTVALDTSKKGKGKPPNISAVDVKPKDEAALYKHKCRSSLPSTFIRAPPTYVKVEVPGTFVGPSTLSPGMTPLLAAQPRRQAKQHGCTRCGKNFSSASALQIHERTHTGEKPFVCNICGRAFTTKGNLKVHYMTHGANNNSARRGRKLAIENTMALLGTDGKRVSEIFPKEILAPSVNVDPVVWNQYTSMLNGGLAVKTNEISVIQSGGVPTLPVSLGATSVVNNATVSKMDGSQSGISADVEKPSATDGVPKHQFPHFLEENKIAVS
The E-score of `GGAACACC` is reported as -0.169.
For `AATCCAAT`, the E-score was 0.156.
The E-score of `CCCAAGCA` is reported as 0.0283.
With `CTTGTACA` the E-score was 0.138.
The E-score of `ACTAAGCC` is reported as -0.0814.
The E-score of `GCCCTAGA` is reported as -0.216.
`GACCGGAC` has an E-score of -0.34.
For `CAGCTCGA`, the E-score was -0.264.
The E-score of `CTTCGGGC` is reported as -0.209.
`CGCCATCA` gave an E-score of -0.127.
With `CAGCTCGG` the E-score was -0.298.
`AGGAAAAA` has an E-score of 0.265.
The E-score of `CTGGGTCC` is reported as -0.237.
`CGAAGTCG` gave an E-score of -0.0882.
`AATTGCAT` gave an E-score of 0.252.
For `AGATAGTG`, the E-score was 0.0357.
`CTCCAACC` has an E-score of -0.0816.
For `ACGGTCAC`, the E-score was -0.258.
`ACGACCTA` has an E-score of -0.0245.
With `CACTGTGA` the E-score was -0.128.
The E-score of `AGACCACT` is reported as 0.0048.

Sample 2
Target: RNA binding protein fox-1 homolog 2, RRM domain, GST-SBP tag (RBFOX2, Homo sapiens, UniProt O43251-10, residues 100-194)
Method: RNA Bind-n-Seq
Form: RNA
Sample: in vitro
Concentration: 365 nM
Notes: natural RNA segment, single round, ends assumed
Relative to: no-protein control
Reading: higher = stronger binding
Residues (chain): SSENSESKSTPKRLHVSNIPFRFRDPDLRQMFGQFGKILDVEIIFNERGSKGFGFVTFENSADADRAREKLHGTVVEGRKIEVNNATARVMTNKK
`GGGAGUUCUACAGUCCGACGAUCUGUCCAGCCUUGUGUUUUCUGUAACCCCUGUUUGUGGUACGAGAUAAUGAGUCCUAUUUUUCUCUCACAUAAUAUGCAUUUGCUCUCCUAGGACAGUGUAAUACAUUUAUUGGAAUUCUCGGGUGCCAA` — result for “RBNS enrichment (R)”: 0.391.
`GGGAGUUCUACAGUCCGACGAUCAAAAUUGUAUAUAUUUUUACAGAAAGUCUAUUUCUUUGAAACGAAGGAAGUAUCGAAUUUACAUUAGUUUUUUUCAUACCCUUUUGAACUUUGCAACUUCCGUAAUUAGGUGGAAUUCUCGGGUGCCAA` — result for “RBNS enrichment (R)”: 0.379.
Under “RBNS enrichment (R)”, `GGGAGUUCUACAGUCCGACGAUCAAACACCUCCUUCUCUUACACCCUUCGAAAUGGGUACAAACUUAAUUCUUCUCAGAAACUGGAAGACAUUCCUCUGUGUUUGCCCCUUCCUGACCCAAGAGACACCCUAUUGGAAUUCUCGGGUGCCAA` is recorded as 0.473.
Under “RBNS enrichment (R)”, `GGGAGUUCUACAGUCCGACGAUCAAUGUAUGUCUCUAGGACAUUUUAUAGUUUUAAGAGGAAGAAAACAGAAACGUGGCAUCAUUUGGGAAGAACCAAGGUAGAAUUUAAUUUUCUGGACUUUAAAUCUCCUGUGGAAUUCUCGGGUGCCAA` is recorded as 0.913.
`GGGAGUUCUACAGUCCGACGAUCGAACCAUUUUCAGUUUAUUUACUAUGCAAUAGACAGUCCUUGUUUUGUACUCAGCUAGCUUUGAUUUAAUGUACCACUGCUUUGUCUUUCUGUUACACAUAUGGUUUUGAUGGAAUUCUCGGGUGCCAA` — result for “RBNS enrichment (R)”: 0.627.
`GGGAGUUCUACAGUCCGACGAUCACAAAGCUCAAUAAAUAUCCAUUACUCUGCUCAGAGUGUUGAGAGAGAAGCCCUAAUUAACAACGUUGGUGACUUGUGUAAAAUGGAUUUGUAACCUACAAGUCACCAAAUGGAAUUCUCGGGUGCCAA`: “RBNS enrichment (R)” 0.553.
Under “RBNS enrichment (R)”, `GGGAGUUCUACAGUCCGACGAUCACAAGUGAGGUGGAGAGUUGGCUGUGGAAGGUACAGCAAUUCCUCUGGAAUUAAAUGACCGACCAACACAGUACCAAGAGGAUGAAGAGAAGAUGUUUUGCGUUGCUACGUGGAAUUCUCGGGUGCCAA` is recorded as 0.601.
Under “RBNS enrichment (R)”, `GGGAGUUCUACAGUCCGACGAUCUGGCCACAGACAGUUUCAAGUAGUGUCAGAUUUUUGUUGCUUGGGCGGCUGUUGGUAGAGUGGGCAGUGCCCGCGCCAUGGGGUGCUCUGUGGGCUUCUCCAGGAGCAGGUGGAAUUCUCGGGUGCCAA` is recorded as 0.531.
Under “RBNS enrichment (R)”, `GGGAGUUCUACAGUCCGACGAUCUGCCGUCUGGCAUUUUAGUUUAAUACAAACUAAUGAUUGCAUUUGAAAGAGAUUCUUGACCUUAUUUCUAAACGUCUAGAGCUCUGAAAUGUCUUGAUGGAAGGUAUUAAUGGAAUUCUCGGGUGCCAA` is recorded as 0.412.
For `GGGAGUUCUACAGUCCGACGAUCCUCCUGCUGUAUUCAGGGGUGCCCCCUGGUGCUCAGCCUCUACCACCCCCAACCCUGCUCUUGGGUACCCAGAGGGGUCAUUUCUGAAUCCCUUGCCCAGAGGACAGACCUGGAAUUCUCGGGUGCCAA`, “RBNS enrichment (R)” read 0.562.
`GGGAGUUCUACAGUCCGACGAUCCCUCAGUGUCCUCACCUGUCAAGUGGGCAAGCCAUGCUGAUCCGCAGGGUAAGUUACUGGGAGUUUGCAAGACGGAGACAAGAUCCCUGGCUCUGCCGUGCUAAUCUUCAUGGAAUUCUCGGGUGCCAA` — result for “RBNS enrichment (R)”: 0.253.
`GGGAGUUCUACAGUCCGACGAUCCAUUAAAUCCAUUAGUAUUACAUUGCUUUCAAAGAGAAGGUGGGUGGAACUAUAAUUCAGCAUCUUUUACUGCAUUUAAAGAUGGGAGCAAACUUUUGUAUGGUUGGGAGUGGAAUUCUCGGGUGCCAA` — result for “RBNS enrichment (R)”: 0.93.

Sample 3
Target: Prothrombin, mature alpha-thrombin (F2, Homo sapiens, UniProt P00734)
Method: aptamer microarray, sandwich
Form: DNA with 2'F-ANA
Sample: in vitro
Concentration: 200 nM
Notes: whole 15-mer aptamer, many near background
Added: Cy3 exosite-II aptamer, 400 nM
Reading: higher = stronger binding
Oligonucleotide: GGTTGGTGTGGTTGG
For `2'F-ANA at 2 4 5 6 8 10 11 12 14 15`, “mean fluorescence intensity” read 67.7 a.u.
`2'F-ANA at 1 2 3 4 5 6 7 9 12 13`: “mean fluorescence intensity” 72.8 a.u.
`2'F-ANA at 1 2 4 5 7 8 10 11 14 15`: “mean fluorescence intensity” 43.9 a.u.
Under “mean fluorescence intensity”, `2'F-ANA at 1 4 5 7 8 9 10` is recorded as 54 a.u.
`2'F-ANA at 1 4 8 11`: “mean fluorescence intensity” 130 a.u.
`2'F-ANA at 2 7 12 13`: “mean fluorescence intensity” 647 a.u.
`2'F-ANA at 1 2 3 4 5 7 8 9 11 13 15`: “mean fluorescence intensity” 54.1 a.u.
Under “mean fluorescence intensity”, `2'F-ANA at 1 3 6 7 8 9 11 13 15` is recorded as 212 a.u.
`2'F-ANA at 1 2 3 4 6 8 11 12 13` — result for “mean fluorescence intensity”: 216 a.u.
`2'F-ANA at 1 4 5 6 9 10 14 15`: “mean fluorescence intensity” 49.4 a.u.
`2'F-ANA at 1 5 6 8 9 11 12 13 14`: “mean fluorescence intensity” 48.2 a.u.
For `2'F-ANA at 3 4 7 9 12 13 14 15`, “mean fluorescence intensity” read 339 a.u.
`2'F-ANA at 5 7 11 12 13 14` — result for “mean fluorescence intensity”: 46.6 a.u.
`2'F-ANA at 2 5 10 11 13 15`: “mean fluorescence intensity” 107 a.u.
For `2'F-ANA at 2 4 6 8 9 10 13 14`, “mean fluorescence intensity” read 76.7 a.u.
For `2'F-ANA at 1 5 9 13`, “mean fluorescence intensity” read 47.1 a.u.
`2'F-ANA at 1 4 5 8 9 11 14` — result for “mean fluorescence intensity”: 43.3 a.u.
For `2'F-ANA at 1 7 8 10 11 12 15`, “mean fluorescence intensity” read 67.2 a.u.
`2'F-ANA at 5 8 9 11 15` — result for “mean fluorescence intensity”: 65.1 a.u.
Under “mean fluorescence intensity”, `2'F-ANA at 1 3 8 12` is recorded as 579 a.u.
`2'F-ANA at 1 2 3 5 8 11 14`: “mean fluorescence intensity” 45.6 a.u.
Under “mean fluorescence intensity”, `2'F-ANA at 3 6 7 8 9 11 15` is recorded as 705 a.u.
`2'F-ANA at 1 2 4 5 9 11 14`: “mean fluorescence intensity” 41.4 a.u.
`2'F-ANA at 1 5 6 7 8 11 13` — result for “mean fluorescence intensity”: 54 a.u.
For `2'F-ANA at 1 2 6 7 9 10 11 12 14 15`, “mean fluorescence intensity” read 50.3 a.u.

Sample 4
Target: Histone acetyltransferase KAT6A, winged helix 2, GST fusion (KAT6A, Homo sapiens, UniProt Q92794, residues 85-181)
Method: protein binding microarray
Form: double-stranded DNA, one strand shown
Sample: in vitro
Concentration: not given
Notes: 8-mer, flanks averaged, mean of 2 arrays, mostly near background
Relative to: not given
Reading: higher = stronger binding
Residues (chain): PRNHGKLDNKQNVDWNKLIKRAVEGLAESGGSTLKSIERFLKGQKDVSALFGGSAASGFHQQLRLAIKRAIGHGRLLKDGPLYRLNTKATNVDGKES
The E-score of `AAGGGCAC` is reported as 0.0053.
`AGGAGCCG` has an E-score of 0.0909.
The E-score of `AGTACAGC` is reported as 0.0405.
`CCTTGTAA` has an E-score of 0.0405.
With `AGGTTCGA` the E-score was 0.0203.
The E-score of `GAAACAAA` is reported as 0.0387.
With `GGGCACCC` the E-score was 0.177.
`CCAAAGCG` gave an E-score of 0.0181.
`AATAGGCT` gave an E-score of -0.0578.
For `CCCGTCAC`, the E-score was 0.0589.
The E-score of `ACCTGATC` is reported as -0.0543.
The E-score of `CGCAGCGA` is reported as 0.199.
`ATCCGTGG` has an E-score of -0.0513.
With `CAGGTTTC` the E-score was 0.117.
With `AGGCGCAG` the E-score was 0.15.
For `GCGCCAGC`, the E-score was 0.21.
With `TCCACGCA` the E-score was -0.0155.
`ACATAACG` has an E-score of -0.0379.
`CGTAACGA` has an E-score of -0.132.
The E-score of `TCAGCCAA` is reported as -0.096.
The E-score of `CAGTGTCA` is reported as -0.0886.
With `ACGAGGGA` the E-score was -0.0797.
With `CGACCGAC` the E-score was -0.0376.
For `AATTACGC`, the E-score was -0.152.
The E-score of `ACAAAAGC` is reported as 0.0799.

For quick reference, copied from above (sample 4):
`CCTTGTAA` has an E-score of 0.0405.
The E-score of `GAAACAAA` is reported as 0.0387.
`ACATAACG` has an E-score of -0.0379.
With `TCCACGCA` the E-score was -0.0155.
With `CGACCGAC` the E-score was -0.0376.
The E-score of `CAGTGTCA` is reported as -0.0886.
`CCAAAGCG` gave an E-score of 0.0181.
`AGGAGCCG` has an E-score of 0.0909.
The E-score of `AAGGGCAC` is reported as 0.0053.
With `CAGGTTTC` the E-score was 0.117.
With `AGGTTCGA` the E-score was 0.0203.
